Assay results from different studies.
Protocols differ between the studies behind these lines. ± marks the error that the study gave.
CYP2J2: Cytochrome P450 2J2 (CYP2J2, Homo sapiens, UniProt P51589)
UniProt P51589, sequence (whole entry, looked up): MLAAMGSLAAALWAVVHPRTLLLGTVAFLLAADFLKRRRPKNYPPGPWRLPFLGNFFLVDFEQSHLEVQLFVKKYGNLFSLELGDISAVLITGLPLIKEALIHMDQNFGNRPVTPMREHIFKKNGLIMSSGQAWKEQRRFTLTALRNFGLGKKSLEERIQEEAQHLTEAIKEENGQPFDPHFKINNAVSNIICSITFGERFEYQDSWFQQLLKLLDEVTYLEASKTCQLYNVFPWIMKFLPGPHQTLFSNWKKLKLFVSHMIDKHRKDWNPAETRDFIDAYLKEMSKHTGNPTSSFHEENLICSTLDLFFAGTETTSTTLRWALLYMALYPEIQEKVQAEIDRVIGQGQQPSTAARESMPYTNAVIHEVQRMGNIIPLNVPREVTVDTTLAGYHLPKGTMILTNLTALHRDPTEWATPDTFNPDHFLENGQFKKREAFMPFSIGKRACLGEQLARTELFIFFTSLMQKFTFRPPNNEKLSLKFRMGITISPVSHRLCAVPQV
SLC22A11: Solute carrier family 22 member 11 (SLC22A11, Homo sapiens, UniProt Q9NSA0)
UniProt Q9NSA0, sequence (whole entry, looked up): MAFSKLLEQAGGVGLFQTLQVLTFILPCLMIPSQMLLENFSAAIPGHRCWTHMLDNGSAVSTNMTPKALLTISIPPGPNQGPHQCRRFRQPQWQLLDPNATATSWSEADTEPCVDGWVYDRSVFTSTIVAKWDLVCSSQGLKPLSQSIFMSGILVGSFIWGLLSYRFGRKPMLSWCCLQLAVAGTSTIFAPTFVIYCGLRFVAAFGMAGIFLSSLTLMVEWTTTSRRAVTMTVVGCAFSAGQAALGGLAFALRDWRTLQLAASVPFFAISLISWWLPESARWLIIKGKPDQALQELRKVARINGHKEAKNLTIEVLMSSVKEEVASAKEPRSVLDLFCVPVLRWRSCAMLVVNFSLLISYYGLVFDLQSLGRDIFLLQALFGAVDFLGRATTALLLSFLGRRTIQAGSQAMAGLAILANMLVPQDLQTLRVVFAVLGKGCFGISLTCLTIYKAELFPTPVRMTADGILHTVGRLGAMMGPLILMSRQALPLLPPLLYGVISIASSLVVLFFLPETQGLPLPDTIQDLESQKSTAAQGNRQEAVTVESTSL
NR1I2: Nuclear receptor subfamily 1 group I member 2 (NR1I2, Homo sapiens, UniProt O75469)
UniProt O75469, sequence (whole entry, looked up): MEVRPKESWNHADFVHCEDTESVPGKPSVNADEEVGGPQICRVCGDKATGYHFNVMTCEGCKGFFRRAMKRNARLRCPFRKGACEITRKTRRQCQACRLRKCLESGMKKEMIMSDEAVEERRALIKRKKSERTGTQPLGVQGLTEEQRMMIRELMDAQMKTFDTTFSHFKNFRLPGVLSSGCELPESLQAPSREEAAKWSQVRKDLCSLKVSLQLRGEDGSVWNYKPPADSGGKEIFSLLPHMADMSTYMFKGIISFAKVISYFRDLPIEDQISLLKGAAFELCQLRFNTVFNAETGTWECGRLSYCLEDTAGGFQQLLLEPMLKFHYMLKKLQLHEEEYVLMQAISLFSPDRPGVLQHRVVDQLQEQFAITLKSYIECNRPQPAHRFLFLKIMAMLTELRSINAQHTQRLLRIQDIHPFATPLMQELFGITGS
CYP2D6: Cytochrome P450 2D6 (CYP2D6, Homo sapiens, UniProt P10635)
UniProt P10635, sequence (whole entry, looked up): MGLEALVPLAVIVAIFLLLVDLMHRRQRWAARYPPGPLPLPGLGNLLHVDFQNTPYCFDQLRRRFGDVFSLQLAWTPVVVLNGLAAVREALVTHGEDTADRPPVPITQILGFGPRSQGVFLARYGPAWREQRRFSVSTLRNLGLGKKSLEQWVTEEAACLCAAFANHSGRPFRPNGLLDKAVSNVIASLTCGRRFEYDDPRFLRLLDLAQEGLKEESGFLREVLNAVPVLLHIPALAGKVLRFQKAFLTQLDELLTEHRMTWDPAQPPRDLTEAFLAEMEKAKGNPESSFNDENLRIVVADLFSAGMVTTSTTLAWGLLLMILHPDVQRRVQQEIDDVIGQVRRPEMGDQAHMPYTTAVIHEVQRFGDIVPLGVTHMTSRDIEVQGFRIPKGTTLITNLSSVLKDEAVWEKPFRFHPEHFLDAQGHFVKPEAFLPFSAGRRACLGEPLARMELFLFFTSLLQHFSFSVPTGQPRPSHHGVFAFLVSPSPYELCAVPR
SLCO1B3: Solute carrier organic anion transporter family member 1B3 (SLCO1B3, Homo sapiens, UniProt Q9NPD5)
UniProt Q9NPD5, sequence (whole entry, unmodified, looked up): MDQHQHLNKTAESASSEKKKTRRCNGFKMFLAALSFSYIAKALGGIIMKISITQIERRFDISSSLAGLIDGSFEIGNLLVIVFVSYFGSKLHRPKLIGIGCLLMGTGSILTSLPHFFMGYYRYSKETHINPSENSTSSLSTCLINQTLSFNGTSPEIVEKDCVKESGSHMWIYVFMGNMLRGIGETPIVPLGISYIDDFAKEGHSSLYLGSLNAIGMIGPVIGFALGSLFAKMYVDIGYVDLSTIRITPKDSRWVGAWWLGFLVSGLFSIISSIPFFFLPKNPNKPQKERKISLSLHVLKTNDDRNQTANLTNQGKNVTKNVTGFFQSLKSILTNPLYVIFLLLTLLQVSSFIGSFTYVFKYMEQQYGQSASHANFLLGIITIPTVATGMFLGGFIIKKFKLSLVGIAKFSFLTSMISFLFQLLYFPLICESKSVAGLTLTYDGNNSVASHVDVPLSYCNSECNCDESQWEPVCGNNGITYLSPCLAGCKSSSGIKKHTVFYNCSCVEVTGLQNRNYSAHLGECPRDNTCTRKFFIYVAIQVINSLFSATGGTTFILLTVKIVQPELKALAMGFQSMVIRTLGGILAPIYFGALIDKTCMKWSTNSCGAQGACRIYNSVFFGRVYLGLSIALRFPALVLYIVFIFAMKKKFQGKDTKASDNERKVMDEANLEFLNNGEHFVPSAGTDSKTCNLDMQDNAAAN
UniProt P21447, sequence (whole entry, looked up): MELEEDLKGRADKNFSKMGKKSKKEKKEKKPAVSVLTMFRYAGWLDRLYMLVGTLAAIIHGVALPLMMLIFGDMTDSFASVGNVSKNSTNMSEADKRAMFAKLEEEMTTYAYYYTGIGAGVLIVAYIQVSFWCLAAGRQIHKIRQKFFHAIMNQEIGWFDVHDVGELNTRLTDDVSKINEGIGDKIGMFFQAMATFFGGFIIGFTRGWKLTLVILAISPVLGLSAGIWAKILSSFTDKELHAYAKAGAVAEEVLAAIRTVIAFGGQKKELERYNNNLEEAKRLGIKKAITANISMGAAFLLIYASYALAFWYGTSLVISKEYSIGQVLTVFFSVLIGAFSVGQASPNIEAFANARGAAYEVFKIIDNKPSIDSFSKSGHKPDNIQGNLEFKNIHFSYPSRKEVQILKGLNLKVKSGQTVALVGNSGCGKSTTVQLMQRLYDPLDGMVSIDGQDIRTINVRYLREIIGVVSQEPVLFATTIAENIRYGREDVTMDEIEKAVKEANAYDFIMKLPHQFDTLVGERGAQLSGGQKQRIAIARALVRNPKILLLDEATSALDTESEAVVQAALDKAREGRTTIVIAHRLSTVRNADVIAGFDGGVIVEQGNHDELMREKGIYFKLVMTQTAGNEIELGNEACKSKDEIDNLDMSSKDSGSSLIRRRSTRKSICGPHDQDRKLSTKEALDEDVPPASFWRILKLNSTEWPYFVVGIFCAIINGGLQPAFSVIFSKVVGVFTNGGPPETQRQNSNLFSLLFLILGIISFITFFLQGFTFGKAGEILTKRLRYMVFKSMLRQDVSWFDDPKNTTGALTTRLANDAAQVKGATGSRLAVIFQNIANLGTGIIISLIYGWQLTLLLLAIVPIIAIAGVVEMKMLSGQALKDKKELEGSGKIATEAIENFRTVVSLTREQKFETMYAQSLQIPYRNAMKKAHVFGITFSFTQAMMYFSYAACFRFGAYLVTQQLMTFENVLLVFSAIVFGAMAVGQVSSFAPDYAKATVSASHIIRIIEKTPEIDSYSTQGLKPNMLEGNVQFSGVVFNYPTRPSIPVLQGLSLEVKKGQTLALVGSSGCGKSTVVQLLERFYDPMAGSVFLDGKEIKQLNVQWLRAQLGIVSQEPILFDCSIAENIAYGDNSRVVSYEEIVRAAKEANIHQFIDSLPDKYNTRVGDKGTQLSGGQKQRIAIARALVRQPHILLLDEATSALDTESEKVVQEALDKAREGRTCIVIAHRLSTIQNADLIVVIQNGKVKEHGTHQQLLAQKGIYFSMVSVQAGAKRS
UniProt P27338, sequence (whole entry, looked up): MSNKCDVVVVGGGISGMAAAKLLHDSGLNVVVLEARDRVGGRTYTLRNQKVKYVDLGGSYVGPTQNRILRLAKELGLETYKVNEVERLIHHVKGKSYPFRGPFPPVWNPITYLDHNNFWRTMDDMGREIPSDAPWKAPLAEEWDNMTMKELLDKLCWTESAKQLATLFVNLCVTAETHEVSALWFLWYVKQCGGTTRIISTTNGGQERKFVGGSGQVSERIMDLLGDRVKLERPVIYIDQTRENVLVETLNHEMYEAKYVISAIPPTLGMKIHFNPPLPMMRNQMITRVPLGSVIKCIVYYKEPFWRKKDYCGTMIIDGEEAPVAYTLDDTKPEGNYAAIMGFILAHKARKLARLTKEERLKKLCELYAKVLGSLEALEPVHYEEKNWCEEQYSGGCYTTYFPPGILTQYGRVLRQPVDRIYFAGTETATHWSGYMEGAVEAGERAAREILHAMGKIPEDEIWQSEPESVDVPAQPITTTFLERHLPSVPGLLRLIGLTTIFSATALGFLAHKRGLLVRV
UniProt P15538, sequence (whole entry, unmodified, looked up): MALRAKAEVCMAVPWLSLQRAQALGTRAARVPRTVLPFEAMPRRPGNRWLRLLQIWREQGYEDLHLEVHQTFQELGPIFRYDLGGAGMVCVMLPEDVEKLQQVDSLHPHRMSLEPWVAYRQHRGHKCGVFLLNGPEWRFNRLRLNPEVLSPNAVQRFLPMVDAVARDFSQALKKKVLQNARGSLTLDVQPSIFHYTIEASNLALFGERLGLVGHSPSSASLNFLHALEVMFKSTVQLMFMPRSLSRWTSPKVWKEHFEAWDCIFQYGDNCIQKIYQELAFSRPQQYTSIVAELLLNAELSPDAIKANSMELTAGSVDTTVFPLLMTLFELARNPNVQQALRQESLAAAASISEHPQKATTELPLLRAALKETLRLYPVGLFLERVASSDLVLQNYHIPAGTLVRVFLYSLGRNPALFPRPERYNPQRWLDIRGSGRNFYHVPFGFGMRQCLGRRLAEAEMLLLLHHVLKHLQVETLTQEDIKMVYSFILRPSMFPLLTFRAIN

c1ccc(-c2cccc(Nc3nccc(NC4CCCCC4)n3)c2)cc1
Papp (A-B) (P-glycoprotein (human MDR1); MDR1-MDCKII; 10 µM, 1 h, pH 7.4): 0.004 ± 0.001 ×10⁻⁶ cm/s

COc1cccc2c1C(=N)c1c(O)c3c(c(O)c1C2=O)C[C@@](O)(C(C)=O)C[C@@H]3O[C@H]1C[C@H](N)[C@H](O)[C@H](C)O1
Kd (CYP2J2; pH 7.4): 6.08 ± 0.58 µM

c1cncc(-c2cccc(Nc3nccc(NC4CCCCC4)n3)c2)c1
Papp (B-A) (P-glycoprotein (human MDR1); MDR1-MDCKII; 10 µM, 1 h, pH 7.4): 10.6 ± 4.04 ×10⁻⁶ cm/s

COc1cc(CC(=O)O)ccc1O
uptake rate (SLC22A11; substrate; HEK293 control cells; 5 min): 36.4 ± 1.9 pmol/min/mg protein

CC(C)CCCCC(=O)N[C@@H](CCN)C(=O)N[C@H](C(=O)N[C@@H](CCN)C(=O)N[C@H]1CCNC(=O)[C@H]([C@@H](C)O)NC(=O)[C@H](CCN)NC(=O)[C@H](CCN)NC(=O)[C@H](CC(C)C)NC(=O)[C@@H](Cc2ccccc2)NC(=O)[C@H](CCN)NC1=O)[C@@H](C)O
fu (plasma proteins; equilibrium dialysis; human, normal renal function, plasma; intravenous, 0.75 mg/kg, 4 h, 37 °C): 0.111

N[C@H](CNC(=O)c1cc(Br)c(-c2ccccc2F)s1)C(=O)O
apparent permeability (P-glycoprotein (human MDR1); MDCK canine MDR1 knock-out, human MDR1 transfected; 3 µM, pH 7.4): < 10 ×10⁻⁶ cm/s

COC(=O)c1cccc(-c2cccc(Nc3nccc(NC4CCCCC4)n3)c2)c1
efflux ratio (P-glycoprotein (human MDR1); MDR1-MDCKII; 10 µM, 1 h, pH 7.4; baseline: B-A over A-B): 5.23

CCCCCCCC(=O)c1cc(OC)c(OC)c(OC)c1CC(=O)OCC
activation (NR1I2; reporter gene, agonist, Gal4 hybrid reporter; HEK293T transiently transfected; 10 µM, 16 h, 0.1% DMSO; baseline: vehicle): 1.59 fold

CC(C)Nc1ccnc(Nc2ccccc2-c2ccccc2)n1
efflux ratio (P-glycoprotein (human MDR1); MDR1-MDCKII; 10 µM, 1 h, pH 7.4; baseline: B-A over A-B): 0.82

CC[C@H]1[C@@H](O)[C@@H]2[C@H](CC[C@]3(C)[C@@H]([C@H](C)CCNC(=O)NS(=O)(=O)c4ccc(C(C)(C)C)cc4)CC[C@@H]23)[C@@]2(C)CC[C@@H](O)C[C@@H]12
half-life (ABCB1 (Homo sapiens, UniProt P08183); human, plasma; dose not given, geometric mean, with: quinidine): 11.1 h

CCCCc1oc2ccc(NS(C)(=O)=O)cc2c1C(=O)c1ccc(OCCCN(CCCC)CCCC)cc1
kinact (CYP2J2; inactivator; with: astemizole substrate): 0.02 ± 0.0018 min⁻¹

COc1cccc(-c2cccc(Nc3nccc(NC(C)C)n3)c2)c1
Papp (A-B) (P-glycoprotein (human MDR1); MDR1-MDCKII; 10 µM, 1 h, pH 7.4): 0.369 ± 0.049 ×10⁻⁶ cm/s

N#C[C@H](C[C@@H]1CCCNC1=O)NC(=O)[C@H](CC1CC1)NC(=O)c1cc2cccc(Cl)c2[nH]1
half-life (CYP2D6; NADPH metabolic stability; 2 µM, pH 7.4): > 0.167 h

CC(C)n1c(/C=C/C(O)CC(O)CC(=O)O)c(-c2ccc(F)cc2)c2ccccc21 (centres unmarked)
Vmax (SLCO1B3; uptake, substrate; HEK293-A stably expressing SLCO1B3; 2 min): 332 ± 172 pmol/mg protein/min

C[C@]12C[C@H](O)[C@H]3[C@@H](CCC4=CC(=O)CC[C@@]43C)[C@@H]1CC[C@@H]2C(=O)CO
18-hydroxylation coupling efficiency (CYP11B1 (Homo sapiens, UniProt P15538, V320A); substrate; 100 µM, phospholipid vesicles): 1.7 ± 0.3%

CC(C)c1nc(N(C)S(C)(=O)=O)nc(-c2ccc(F)cc2)c1/C=C/[C@@H](O)C[C@@H](O)CC(=O)O
Vmax (SLCO1B3 (Homo sapiens, UniProt Q9NPD5, S112A); uptake, substrate; HEK293-A stably expressing SLCO1B3; 2 min): 627 ± 323 pmol/mg protein/min

C=CCN=C=S
inhibition (CYP2D6; enzyme activity; human liver microsomes; concentration not given, 10 min, with: dextromethorphan): 75%

CC[C@H](C)CCCCC(=O)N[C@@H](CCN)C(=O)N[C@H](C(=O)N[C@@H](CCN)C(=O)N[C@H]1CCNC(=O)[C@H]([C@@H](C)O)NC(=O)[C@H](CCN)NC(=O)[C@H](CCN)NC(=O)[C@H](CC(C)C)NC(=O)[C@@H](Cc2ccccc2)NC(=O)[C@H](CCN)NC1=O)[C@@H](C)O
fu (plasma proteins; equilibrium dialysis; human, long-term intermittent hemodialysis, plasma; intravenous, 0.75 mg/kg, 4 h, 37 °C): 0.054

c1ccc(-c2cccc(Nc3nccc(NC4CCCCC4)n3)c2)nc1
Papp (A-B) (P-glycoprotein (human MDR1); MDR1-MDCKII; 10 µM, 1 h, pH 7.4): 15.7 ± 8.9 ×10⁻⁶ cm/s

NC(Cc1cc(I)c(Oc2cc(I)c(O)c(I)c2)c(I)c1)C(=O)O (centres unmarked)
uptake (SLCO1B3; substrate; COS-1 transfected with SLCO1B3; 60 min, 37 °C; baseline: empty vector-transfected cells): increased

C=C1C(=O)O[C@@H]2C[C@@]3(C)CCCC(=C)[C@@H]3C[C@H]12
activation (NR1I2; reporter gene, agonist, Gal4 hybrid reporter; HEK293T transiently transfected; 10 µM, 16 h, 0.1% DMSO; baseline: vehicle): 3.07 fold

N[C@H](CNC(=O)c1cc(Br)c(-c2ccccc2Br)s1)C(=O)O
apparent permeability (P-glycoprotein (human MDR1); MDCK canine MDR1 knock-out, human MDR1 transfected; 3 µM, pH 7.4): < 10 ×10⁻⁶ cm/s

C=CC(=O)Nc1cc(Nc2nccc(-c3cn(C)c4ccccc34)n2)c(OCC(F)(F)F)nc1N(C)CCNC
intrinsic clearance (CYP2D6; substrate depletion; recombinant human CYP; 1 µM): 0.3 µL/min/pmol

Cc1oc2ccccc2c1Cc1cc(I)c(OCC(=O)O)c(I)c1
half-maximal activation voltage (KCNH2 (Homo sapiens, UniProt Q12809); ion current, activator, whole-cell patch clamp; HEK293 expressing hERG1; 10 µM, external K+ 10 mM, 1 s depolarizations): -19.5 ± 1.5 mV

C[C@H]1CN(C2COC2)CCN1c1ccc(Nc2cc(-c3ccnc(N4CCn5c(cc6c5CC(C)(C)C6)C4=O)c3CO)cn(C)c2=O)nc1
remaining compound (human CYP2C8; human liver microsomes; 1 µM, 60 min, pH 7.4, with: montelukast 2 µM, NADPH; baseline: 0 min): 57 ± 6.7%

CNC(=O)c1cc(Oc2ccc(NC(=O)Nc3ccc(Cl)c(C(F)(F)F)c3)c(F)c2)ccn1
Km (SLCO1B3; substrate, uptake; HEK293-A stably expressing SLCO1B3; 2 min): 67 ± 51.5 µM

NCc1cc2c(cc1F)C(=O)N(C1CCC(=O)NC1=O)C2 (centres unmarked)
concentration (MAOB (Homo sapiens, UniProt P27338); substrate, LC-MS/MS; recombinant enzyme; 10 µM, 0 h, pH 7.4): 11.3 µM

CC(C)Nc1ccnc(Nc2cccc(C(C)(C)C)c2)n1
Papp (A-B) (P-glycoprotein (human MDR1); MDR1-MDCKII; 10 µM, 1 h, pH 7.4): 1.94 ± 0.66 ×10⁻⁶ cm/s

CCc1cc(/C(C)=N/OCc2ccc(C3CCCCC3)c(C(F)(F)F)c2)ccc1CN1CC(C(=O)O)C1
CYP2C9-mediated clearance (Cytochrome P450 2C9 (CYP2C9, Homo sapiens, UniProt P11712); population PK; human, CYP2C9*2/*2, plasma): 1.85 L/h

CC(C)Nc1ccnc(Nc2cccc(-c3cccnc3)c2)n1
Papp (A-B) (P-glycoprotein (human MDR1); MDR1-MDCKII; 10 µM, 1 h, pH 7.4): 80.2 ± 42.1 ×10⁻⁶ cm/s

CNC(=O)c1cc(Oc2ccc(NC(=O)Nc3ccc(Cl)c(C(F)(F)F)c3)cc2)ccn1
Vmax (SLCO1B3 (Homo sapiens, UniProt Q9NPD5, M233I); uptake, substrate; HEK293-A stably expressing SLCO1B3; 2 min): 414 ± 220 pmol/mg protein/min

CCCCCCCCC(=O)c1cc(O)c(O)c(O)c1
activation (NR1I2; reporter gene, agonist, Gal4 hybrid reporter; HEK293T transiently transfected; 10 µM, 16 h, 0.1% DMSO; baseline: vehicle): 3.6 fold

[11CH3]Oc1cccc(CCc2cc(O)c(=O)[nH]n2)c1
increase in brain uptake (Abcb1a (Mus musculus, UniProt P21447); CD-1 mice, brain; concentration not given, 5 min, with: cyclosporine; baseline: without cyclosporine): 30%

Cc1ncc(CO)c(C(=O)O)c1O
uptake rate (SLC22A11; substrate; HEK293 control cells; 5 min): 2.5 ± 0.1 pmol/min/mg protein

CC[C@H]1OC(=O)[C@H](C)[C@@H](O[C@H]2C[C@@](C)(OC)[C@@H](O)[C@H](C)O2)[C@H](C)[C@@H](O[C@@H]2O[C@H](C)C[C@H](N(C)C)[C@H]2O)[C@](C)(O)C[C@@H](C)/C(=N\OCOCCOC)[C@H](C)[C@@H](O)[C@]1(C)O
mRNA level (CYP2B6; induction, item: CYP2B6 mRNA; primary human hepatocytes; NG, 3 days, 0.1% DMSO; baseline: vehicle): < 4 fold

Repeated from above:
CC(C)Nc1ccnc(Nc2cccc(-c3cccnc3)c2)n1
Papp (A-B) (P-glycoprotein (human MDR1); MDR1-MDCKII; 10 µM, 1 h, pH 7.4): 80.2 ± 42.1 ×10⁻⁶ cm/s

CNC(=O)c1cc(Oc2ccc(NC(=O)Nc3ccc(Cl)c(C(F)(F)F)c3)cc2)ccn1
Vmax (SLCO1B3 (Homo sapiens, UniProt Q9NPD5, M233I); uptake, substrate; HEK293-A stably expressing SLCO1B3; 2 min): 414 ± 220 pmol/mg protein/min
